# Measured values from different studies.
# Each line is one published result; not all experiments were run side by side.
# CDC25B: M-phase inducer phosphatase 2 (CDC25B, Homo sapiens, UniProt P30305)
# Sequence of UniProt P30305 (whole entry, looked up): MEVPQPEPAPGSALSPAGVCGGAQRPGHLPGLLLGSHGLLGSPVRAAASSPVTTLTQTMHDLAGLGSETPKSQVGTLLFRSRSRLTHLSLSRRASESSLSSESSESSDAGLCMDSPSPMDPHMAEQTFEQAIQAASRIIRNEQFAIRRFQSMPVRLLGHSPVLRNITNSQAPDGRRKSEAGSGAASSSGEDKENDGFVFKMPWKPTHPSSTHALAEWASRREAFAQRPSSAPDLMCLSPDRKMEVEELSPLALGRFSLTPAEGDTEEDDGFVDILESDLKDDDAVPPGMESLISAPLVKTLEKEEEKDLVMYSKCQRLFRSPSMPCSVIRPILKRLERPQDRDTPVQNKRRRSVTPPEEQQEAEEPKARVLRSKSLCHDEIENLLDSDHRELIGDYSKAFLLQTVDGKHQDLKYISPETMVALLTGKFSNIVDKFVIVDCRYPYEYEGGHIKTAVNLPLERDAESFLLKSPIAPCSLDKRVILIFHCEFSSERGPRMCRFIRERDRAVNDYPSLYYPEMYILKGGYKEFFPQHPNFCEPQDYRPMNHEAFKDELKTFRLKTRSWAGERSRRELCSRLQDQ
# Sequence of UniProt P23739 (whole entry, looked up): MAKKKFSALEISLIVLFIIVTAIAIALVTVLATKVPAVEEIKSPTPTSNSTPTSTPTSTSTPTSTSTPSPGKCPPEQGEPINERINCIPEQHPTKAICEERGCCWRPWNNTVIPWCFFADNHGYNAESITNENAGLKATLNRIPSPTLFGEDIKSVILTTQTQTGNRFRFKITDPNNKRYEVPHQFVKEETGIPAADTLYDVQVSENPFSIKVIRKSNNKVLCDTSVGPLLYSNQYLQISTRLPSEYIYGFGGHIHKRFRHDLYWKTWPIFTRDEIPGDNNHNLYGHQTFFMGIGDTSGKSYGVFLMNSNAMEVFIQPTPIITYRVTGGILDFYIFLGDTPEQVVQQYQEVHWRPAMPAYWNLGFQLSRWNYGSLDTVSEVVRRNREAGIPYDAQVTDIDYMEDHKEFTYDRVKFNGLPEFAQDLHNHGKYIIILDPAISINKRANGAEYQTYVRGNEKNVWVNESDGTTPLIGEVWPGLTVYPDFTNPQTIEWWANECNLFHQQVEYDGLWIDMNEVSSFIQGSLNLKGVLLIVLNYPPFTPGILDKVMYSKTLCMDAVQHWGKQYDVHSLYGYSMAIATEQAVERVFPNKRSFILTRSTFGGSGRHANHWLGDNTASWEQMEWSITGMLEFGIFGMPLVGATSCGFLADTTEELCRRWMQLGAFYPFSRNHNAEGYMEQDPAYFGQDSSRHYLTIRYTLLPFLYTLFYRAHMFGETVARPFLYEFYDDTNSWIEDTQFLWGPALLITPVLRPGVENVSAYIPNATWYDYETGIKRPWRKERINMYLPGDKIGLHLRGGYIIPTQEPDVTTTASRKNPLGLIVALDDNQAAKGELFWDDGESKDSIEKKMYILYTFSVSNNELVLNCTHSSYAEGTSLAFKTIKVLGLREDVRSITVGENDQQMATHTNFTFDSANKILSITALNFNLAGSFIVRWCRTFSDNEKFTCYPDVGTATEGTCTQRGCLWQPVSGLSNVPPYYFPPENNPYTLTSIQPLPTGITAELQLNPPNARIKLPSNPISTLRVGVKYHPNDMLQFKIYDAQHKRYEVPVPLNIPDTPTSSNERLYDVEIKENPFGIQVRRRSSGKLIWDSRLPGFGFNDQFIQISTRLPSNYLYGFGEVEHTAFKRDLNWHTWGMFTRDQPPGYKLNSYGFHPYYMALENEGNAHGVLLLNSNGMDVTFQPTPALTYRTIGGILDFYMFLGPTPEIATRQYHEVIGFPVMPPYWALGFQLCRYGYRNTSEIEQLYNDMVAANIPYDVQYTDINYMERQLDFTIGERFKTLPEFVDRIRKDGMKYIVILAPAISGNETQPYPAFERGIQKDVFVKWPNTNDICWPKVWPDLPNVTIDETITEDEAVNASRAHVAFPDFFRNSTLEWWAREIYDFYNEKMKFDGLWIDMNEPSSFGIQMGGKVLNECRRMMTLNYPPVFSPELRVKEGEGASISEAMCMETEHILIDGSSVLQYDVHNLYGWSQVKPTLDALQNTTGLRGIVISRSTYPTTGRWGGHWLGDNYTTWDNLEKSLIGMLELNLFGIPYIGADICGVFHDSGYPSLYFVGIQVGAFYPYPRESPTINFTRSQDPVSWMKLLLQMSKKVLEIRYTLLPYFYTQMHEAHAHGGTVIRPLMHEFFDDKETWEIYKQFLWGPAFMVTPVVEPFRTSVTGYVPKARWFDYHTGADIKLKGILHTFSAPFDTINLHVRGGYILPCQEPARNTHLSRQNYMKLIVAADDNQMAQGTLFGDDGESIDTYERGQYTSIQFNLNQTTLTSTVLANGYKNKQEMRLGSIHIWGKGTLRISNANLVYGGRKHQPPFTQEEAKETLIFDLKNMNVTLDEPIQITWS
# Sequence of UniProt P05979 (whole entry, looked up): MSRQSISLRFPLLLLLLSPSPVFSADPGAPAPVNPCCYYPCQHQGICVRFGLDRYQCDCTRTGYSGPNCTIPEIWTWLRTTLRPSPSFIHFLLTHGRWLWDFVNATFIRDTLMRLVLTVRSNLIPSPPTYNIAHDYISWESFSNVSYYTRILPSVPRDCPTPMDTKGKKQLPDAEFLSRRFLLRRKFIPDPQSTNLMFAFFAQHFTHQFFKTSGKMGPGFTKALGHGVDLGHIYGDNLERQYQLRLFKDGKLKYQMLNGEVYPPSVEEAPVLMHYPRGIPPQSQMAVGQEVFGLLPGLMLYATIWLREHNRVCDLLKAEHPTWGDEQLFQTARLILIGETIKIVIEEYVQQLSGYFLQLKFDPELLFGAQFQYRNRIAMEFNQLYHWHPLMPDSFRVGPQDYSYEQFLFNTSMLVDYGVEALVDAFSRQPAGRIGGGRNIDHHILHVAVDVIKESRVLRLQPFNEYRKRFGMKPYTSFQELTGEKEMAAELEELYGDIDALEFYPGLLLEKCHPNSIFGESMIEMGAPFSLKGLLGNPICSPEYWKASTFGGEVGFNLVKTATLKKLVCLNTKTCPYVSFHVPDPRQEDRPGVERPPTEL
# Sequence of UniProt Q00194 (whole entry, looked up): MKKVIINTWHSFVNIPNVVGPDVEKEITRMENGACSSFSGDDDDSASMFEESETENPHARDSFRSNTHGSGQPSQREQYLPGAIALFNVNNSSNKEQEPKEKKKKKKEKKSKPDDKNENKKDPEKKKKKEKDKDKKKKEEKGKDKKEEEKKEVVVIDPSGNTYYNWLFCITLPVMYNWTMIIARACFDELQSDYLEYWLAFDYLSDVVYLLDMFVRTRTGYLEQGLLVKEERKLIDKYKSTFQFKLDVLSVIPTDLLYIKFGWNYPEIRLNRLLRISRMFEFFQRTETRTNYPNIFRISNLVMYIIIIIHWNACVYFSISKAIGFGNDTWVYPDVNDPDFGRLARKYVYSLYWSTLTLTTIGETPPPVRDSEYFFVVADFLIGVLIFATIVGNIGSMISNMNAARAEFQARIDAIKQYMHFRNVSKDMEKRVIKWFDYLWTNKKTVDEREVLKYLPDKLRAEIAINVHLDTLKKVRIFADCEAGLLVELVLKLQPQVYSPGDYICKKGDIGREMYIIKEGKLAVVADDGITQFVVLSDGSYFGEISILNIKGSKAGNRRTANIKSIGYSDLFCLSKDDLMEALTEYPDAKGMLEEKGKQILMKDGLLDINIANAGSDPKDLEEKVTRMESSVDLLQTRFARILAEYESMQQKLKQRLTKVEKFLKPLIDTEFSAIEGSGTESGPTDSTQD
# Sequence of UniProt P54290 (whole entry, looked up): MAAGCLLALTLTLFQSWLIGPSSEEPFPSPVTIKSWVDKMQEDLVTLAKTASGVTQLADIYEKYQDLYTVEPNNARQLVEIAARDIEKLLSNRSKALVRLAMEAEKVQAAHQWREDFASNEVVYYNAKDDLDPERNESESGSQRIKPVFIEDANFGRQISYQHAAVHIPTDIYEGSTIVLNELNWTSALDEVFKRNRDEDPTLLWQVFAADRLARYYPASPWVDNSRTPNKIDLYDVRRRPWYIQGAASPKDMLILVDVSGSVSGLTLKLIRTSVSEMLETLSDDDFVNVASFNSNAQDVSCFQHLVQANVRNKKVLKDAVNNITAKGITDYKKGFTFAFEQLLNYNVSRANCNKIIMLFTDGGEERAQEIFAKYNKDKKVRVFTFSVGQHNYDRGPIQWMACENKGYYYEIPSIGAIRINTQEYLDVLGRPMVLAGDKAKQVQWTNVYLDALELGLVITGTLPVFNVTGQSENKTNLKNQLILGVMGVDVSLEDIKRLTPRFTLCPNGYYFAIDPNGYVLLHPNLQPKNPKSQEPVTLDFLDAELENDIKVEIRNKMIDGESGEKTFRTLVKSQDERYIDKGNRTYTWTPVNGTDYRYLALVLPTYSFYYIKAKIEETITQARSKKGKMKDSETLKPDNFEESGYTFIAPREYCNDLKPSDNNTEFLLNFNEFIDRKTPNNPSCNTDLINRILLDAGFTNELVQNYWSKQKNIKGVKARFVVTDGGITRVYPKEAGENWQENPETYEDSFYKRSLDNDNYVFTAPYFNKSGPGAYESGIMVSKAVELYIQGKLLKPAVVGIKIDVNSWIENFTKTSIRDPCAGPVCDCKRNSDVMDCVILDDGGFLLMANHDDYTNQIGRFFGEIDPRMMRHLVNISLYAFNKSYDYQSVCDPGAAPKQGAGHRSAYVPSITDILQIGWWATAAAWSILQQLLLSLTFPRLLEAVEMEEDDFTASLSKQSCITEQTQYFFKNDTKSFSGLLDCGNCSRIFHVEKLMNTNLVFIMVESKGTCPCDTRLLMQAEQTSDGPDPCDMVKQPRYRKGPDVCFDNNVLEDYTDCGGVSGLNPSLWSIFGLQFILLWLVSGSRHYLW
SMILES,target,test,test system,conditions,how to read,inhibition
N[C@H]1CCCc2c1[nH]c1ccc(Cl)cc21,"HTR6 (Homo sapiens, UniProt P50406)","ligand displacement, radioligand",,10 µM,,31.6%
COc1cc(-c2nc(SCc3cn(Cc4ccccc4Cl)nn3)nc(Nc3ccc(C)cc3)c2C#N)cc(OC)c1OC,"KDM1A (Homo sapiens, UniProt O60341)","enzyme activity, inhibitor, fluorescence",,1 µM,,2.2%
CCCCSc1nc(N)c2c(F)c(C#N)c(F)c(F)c2n1,CDC25B,"enzyme activity, inhibitor, fluorescence",,20 µg/mL,,94.3%
C[C@@H](N)C1CCN(S(=O)(=O)c2cccc3c(=O)[nH]ccc23)CC1,"ROCK1 (Homo sapiens, UniProt Q13464)","cell-free assay, competition with immobilised ligand",,10 µM,,> 95%
COc1ccc(-c2csc3ncnc(NCCCN4CCN(c5ccccc5)CC4)c23)cc1,"DRD3 (Homo sapiens, UniProt P35462)","cell-free assay, inhibitor",,10 µM,,> 90%
COCCOCCSc1nc(N)c2c(F)c(F)c(C#N)c(F)c2n1,CDC25B,"enzyme activity, inhibitor, fluorescence",,20 µg/mL,,63.4%
CCCCNC(=O)c1cccc(S(=O)(=O)NC2CC2)c1,"Ectonucleoside triphosphate diphosphohydrolase 1 (Homo sapiens, UniProt P49961)","enzyme activity, inhibitor, absorbance",,100 µM,,42%
CC1CC(=O)c2c(OCC(=O)N3CCC(C(=O)Nc4ccccc4)CC3)ccc(Cl)c21 (centres unmarked),"Trypanothione synthetase (Trypanosoma cruzi, UniProt Q9GT49)","enzyme activity, inhibitor, absorbance",,25 µM,,8.8%
C[Si](C)(C)C[C@H](CN)CC(=O)O,"Voltage-dependent calcium channel subunit alpha-2/delta-1 (Rattus norvegicus, UniProt P54290)",[3H]gabapentin binding,rat cerebral cortex membranes,"0.39 µM, with: [3H]gabapentin 20 nM",,31%
CC1=C(/C=C/C(C)=C/C=C/C(C)=C/C=O)C(C)(C)CCC1,"CNGA1 (Bos taurus, UniProt Q00194)","cGMP-activated current, inhibitor, inside-out patch clamp",,"300 nM, with: saturating cGMP 2 mM",,50.6%
Cc1nn(CCO)c2ncc(C(=O)c3cc(Cl)ccc3O)cc12,"Heat shock protein 90, N-terminal domain (Plasmodium falciparum, UniProt Q8IC05)","ligand displacement, FP",,10 µM,,93%
CSc1nc(N)c2c(F)c(C#N)c(F)c(Cl)c2n1,CDC25B,"enzyme activity, inhibitor, fluorescence",,20 µg/mL,,89.7%
O=C(O[C@@H]1Cc2c(O)cc(O)cc2O[C@@H]1c1ccc(O)c(O)c1)c1cc(O)c(O)c(O)c1,"Si (Rattus norvegicus, UniProt P23739)","enzyme activity, inhibitor",rat intestinal brush border vesicles,10 µM,,61.9%
NC(=O)c1ccc(C(=O)NOCc2ccc(Sc3cccc(Cl)c3)c(C(F)(F)F)c2)cc1,"HDAC6 (Homo sapiens, UniProt Q9UBN7)","cell-free assay, inhibitor",,100 µM,,16.8%
CCCCCCCCCCCCCCCC(=O)N[C@@H](CCCCN)C(=O)N[C@@H](CCCCN)C(=O)N[C@@H](CO)C(=O)N[C@@H](CCCNC(=N)N)C(=O)N[C@@H](C)C(=O)N[C@@H](CC(C)C)C(=O)N[C@@H](Cc1ccccc1)C(N)=O,"F2R (Homo sapiens, UniProt P25116)","platelet aggregation, light transmittance aggregometry","human, platelet-rich plasma ex vivo","0.5 mg/kg, 24 h or discharge, with: SFLLRN 5 µM",baseline: baseline,61%
COc1cc(C(=O)NC2CCC(N3CCN(CC4CCC5(CCCC5)C4)CC3)CC2)c(F)cc1Nc1ncc2c(n1)N(C1CCCC1(F)F)CC(F)(F)C(=O)N2C (centres unmarked),"FRK (Homo sapiens, UniProt P42685)","cell-free assay, TR-FRET",,10 µM,,6.49%
O=[N+]([O-])c1cccc(S(=O)(=O)NC[C@@H](O)[C@@H]2CCc3cc(F)ccc3O2)c1,"PTGS1 (Ovis aries, UniProt P05979)","enzyme activity, inhibitor, absorbance",,100 µM,,47.7%

# A few entries again:
SMILES,target,test,test system,conditions,how to read,inhibition
CC1=C(/C=C/C(C)=C/C=C/C(C)=C/C=O)C(C)(C)CCC1,"CNGA1 (Bos taurus, UniProt Q00194)","cGMP-activated current, inhibitor, inside-out patch clamp",,"300 nM, with: saturating cGMP 2 mM",,50.6%
O=[N+]([O-])c1cccc(S(=O)(=O)NC[C@@H](O)[C@@H]2CCc3cc(F)ccc3O2)c1,"PTGS1 (Ovis aries, UniProt P05979)","enzyme activity, inhibitor, absorbance",,100 µM,,47.7%
